Experimental data pooled from the literature.
Several values in a cell are separate wells, animals, samples, runs or records. ± gives the spread as reported.
Magi2: Membrane-associated guanylate kinase, WW and PDZ domain-containing protein 2 (Magi2, Mus musculus, UniProt Q9WVQ1)
Chain of UniProt Q9WVQ1 (whole entry, looked up): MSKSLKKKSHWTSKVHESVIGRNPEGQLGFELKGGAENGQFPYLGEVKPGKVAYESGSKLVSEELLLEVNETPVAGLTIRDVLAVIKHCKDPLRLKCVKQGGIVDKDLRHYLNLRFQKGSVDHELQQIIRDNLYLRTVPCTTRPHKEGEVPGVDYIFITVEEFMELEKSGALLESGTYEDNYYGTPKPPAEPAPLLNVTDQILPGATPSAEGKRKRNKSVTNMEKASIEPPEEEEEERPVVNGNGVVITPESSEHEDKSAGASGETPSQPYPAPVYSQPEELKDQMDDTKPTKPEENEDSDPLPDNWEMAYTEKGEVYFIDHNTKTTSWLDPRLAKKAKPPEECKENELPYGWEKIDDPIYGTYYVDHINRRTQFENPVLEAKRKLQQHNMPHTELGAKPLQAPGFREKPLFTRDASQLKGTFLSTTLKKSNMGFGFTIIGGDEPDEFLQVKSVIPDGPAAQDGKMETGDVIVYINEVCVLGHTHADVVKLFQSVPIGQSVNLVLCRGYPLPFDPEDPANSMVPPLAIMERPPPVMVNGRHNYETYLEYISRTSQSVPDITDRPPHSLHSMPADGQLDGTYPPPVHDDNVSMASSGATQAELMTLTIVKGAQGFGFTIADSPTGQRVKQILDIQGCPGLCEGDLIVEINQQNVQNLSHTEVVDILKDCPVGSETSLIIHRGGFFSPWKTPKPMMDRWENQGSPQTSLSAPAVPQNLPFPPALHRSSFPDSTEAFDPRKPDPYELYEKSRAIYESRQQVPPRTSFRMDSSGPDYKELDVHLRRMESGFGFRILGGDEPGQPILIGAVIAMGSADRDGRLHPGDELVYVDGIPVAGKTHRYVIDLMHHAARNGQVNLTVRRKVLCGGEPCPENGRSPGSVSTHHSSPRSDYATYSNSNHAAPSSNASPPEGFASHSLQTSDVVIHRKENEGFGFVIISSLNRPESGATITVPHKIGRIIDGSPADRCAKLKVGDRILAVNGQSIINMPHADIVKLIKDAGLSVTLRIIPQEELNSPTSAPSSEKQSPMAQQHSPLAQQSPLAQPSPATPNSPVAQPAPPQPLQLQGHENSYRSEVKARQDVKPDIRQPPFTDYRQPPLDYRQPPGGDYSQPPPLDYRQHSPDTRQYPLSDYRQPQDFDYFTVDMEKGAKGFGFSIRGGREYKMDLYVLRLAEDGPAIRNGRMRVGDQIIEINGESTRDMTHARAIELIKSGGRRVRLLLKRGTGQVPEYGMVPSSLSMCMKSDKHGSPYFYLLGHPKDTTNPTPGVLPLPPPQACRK
Chymotrypsin-C S216A: Chymotrypsin-C (Homo sapiens, UniProt Q99895, S216A)
Chain of UniProt Q99895 (whole entry, unmodified, looked up): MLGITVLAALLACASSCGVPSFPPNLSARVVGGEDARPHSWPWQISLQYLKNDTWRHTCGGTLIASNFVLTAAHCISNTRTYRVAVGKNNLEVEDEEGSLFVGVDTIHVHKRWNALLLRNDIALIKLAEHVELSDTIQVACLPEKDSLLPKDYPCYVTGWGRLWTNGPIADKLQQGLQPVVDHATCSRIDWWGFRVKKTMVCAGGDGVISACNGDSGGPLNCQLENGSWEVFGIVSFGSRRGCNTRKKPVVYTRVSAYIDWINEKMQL
14-3-3 protein epsilon: 14-3-3 protein epsilon (Homo sapiens, UniProt P62258)
Chain of UniProt P62258 (whole entry, looked up): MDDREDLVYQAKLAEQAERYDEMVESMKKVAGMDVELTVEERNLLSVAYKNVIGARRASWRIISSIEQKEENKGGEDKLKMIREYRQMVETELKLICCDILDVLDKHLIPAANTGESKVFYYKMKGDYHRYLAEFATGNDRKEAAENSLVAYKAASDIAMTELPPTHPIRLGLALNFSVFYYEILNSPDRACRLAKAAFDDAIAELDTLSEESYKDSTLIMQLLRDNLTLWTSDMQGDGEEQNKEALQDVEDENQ
Chain of UniProt P33913 (whole entry, looked up): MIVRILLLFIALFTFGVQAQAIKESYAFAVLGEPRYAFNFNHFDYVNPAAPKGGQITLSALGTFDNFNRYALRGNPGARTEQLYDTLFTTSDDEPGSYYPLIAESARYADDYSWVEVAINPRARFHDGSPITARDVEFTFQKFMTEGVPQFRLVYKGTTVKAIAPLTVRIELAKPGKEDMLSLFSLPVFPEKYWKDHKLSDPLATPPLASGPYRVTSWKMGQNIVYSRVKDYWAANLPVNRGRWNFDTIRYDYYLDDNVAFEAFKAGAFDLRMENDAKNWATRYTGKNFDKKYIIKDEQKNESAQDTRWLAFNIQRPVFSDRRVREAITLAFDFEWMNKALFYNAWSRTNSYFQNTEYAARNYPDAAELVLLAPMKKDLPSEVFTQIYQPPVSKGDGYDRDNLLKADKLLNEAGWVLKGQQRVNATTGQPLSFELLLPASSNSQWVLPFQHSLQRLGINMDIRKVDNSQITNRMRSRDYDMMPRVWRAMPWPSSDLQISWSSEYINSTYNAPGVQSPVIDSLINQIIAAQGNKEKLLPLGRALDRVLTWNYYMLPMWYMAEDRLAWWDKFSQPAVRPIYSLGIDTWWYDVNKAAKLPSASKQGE
Chain of UniProt Q9H4B4 (whole entry, looked up): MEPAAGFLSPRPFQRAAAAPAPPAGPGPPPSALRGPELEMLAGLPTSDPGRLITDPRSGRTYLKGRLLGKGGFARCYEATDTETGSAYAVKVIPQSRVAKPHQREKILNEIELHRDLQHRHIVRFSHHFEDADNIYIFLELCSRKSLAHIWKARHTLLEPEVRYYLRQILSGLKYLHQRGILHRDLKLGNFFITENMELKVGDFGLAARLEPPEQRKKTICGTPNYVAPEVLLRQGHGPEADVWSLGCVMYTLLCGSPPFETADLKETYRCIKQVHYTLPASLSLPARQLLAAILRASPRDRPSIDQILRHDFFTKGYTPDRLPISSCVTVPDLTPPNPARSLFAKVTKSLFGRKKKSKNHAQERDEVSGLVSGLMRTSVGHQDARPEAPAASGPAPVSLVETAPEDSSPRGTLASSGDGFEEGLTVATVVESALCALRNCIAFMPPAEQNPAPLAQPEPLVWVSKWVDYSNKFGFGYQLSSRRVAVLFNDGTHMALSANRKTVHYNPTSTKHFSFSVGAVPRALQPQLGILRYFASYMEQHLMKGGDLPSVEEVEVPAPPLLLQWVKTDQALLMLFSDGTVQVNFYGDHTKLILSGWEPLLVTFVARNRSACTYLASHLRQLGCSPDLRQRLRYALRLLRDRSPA
Chain of UniProt P08069 (whole entry, looked up): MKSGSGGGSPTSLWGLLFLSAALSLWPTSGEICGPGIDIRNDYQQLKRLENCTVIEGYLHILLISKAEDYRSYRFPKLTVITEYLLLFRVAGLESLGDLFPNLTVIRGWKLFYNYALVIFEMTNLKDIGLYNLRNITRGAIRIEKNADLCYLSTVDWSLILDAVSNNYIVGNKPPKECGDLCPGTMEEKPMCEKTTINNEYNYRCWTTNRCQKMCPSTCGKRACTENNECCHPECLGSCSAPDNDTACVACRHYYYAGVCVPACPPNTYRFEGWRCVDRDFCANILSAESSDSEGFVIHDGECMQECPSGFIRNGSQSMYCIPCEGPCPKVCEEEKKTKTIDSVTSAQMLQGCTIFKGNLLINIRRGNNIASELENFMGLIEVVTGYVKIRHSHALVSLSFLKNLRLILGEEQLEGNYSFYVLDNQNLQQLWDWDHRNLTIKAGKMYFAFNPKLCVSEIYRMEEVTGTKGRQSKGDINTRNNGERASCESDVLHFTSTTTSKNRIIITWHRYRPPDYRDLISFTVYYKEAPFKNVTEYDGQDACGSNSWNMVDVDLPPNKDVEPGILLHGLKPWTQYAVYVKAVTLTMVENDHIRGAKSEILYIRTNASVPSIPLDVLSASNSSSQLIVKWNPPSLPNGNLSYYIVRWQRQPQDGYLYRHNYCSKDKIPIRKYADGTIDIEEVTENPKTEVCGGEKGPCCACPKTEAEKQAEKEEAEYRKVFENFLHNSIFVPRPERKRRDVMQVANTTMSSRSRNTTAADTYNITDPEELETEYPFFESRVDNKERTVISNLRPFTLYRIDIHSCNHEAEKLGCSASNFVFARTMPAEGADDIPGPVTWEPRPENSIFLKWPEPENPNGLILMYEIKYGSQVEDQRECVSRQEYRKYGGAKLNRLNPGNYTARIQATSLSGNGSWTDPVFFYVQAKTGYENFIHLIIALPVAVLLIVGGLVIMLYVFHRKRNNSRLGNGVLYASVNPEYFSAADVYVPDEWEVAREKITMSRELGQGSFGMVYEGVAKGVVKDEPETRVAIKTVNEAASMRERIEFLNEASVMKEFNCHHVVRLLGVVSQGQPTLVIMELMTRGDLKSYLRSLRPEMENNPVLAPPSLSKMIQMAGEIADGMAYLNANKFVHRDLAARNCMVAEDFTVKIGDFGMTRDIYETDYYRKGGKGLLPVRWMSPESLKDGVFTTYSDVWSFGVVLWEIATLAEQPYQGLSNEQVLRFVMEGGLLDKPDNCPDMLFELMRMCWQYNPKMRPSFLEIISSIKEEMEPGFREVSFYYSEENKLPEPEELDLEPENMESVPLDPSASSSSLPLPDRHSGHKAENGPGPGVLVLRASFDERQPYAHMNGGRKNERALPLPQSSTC
Chain of UniProt Q04917 (whole entry, looked up): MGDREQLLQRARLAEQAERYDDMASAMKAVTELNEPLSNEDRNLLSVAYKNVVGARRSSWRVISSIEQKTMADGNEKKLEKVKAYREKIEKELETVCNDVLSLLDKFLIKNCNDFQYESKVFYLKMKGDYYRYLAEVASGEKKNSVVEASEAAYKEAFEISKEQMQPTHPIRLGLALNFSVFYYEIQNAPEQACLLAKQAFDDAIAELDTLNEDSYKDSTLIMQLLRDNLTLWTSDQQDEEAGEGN

`CC[C@H](C)[C@@H]1NC(=O)[C@@H]2CCCN2C(=O)[C@H](Cc2c[nH]c3ccccc23)NC(=O)[C@H](CO)NC(=O)[C@H](Cc2c[nH]c3ccccc23)NC(=O)[C@H](CC(N)=O)NC(=O)[C@H](CCCCN)NC(=O)[C@H](CCSC)NC(=O)[C@@H]2CSCCC(=O)N3CN(CN(C3)C(=O)CCSC[C@H](NC(=O)[C@H](C)N)C(=O)N3CCC[C@H]3C(=O)N[C@@H](Cc3ccccc3)C(=O)NCC(=O)N2)C(=O)CCSC[C@@H](C(=O)N[C@H](C(=O)N[C@@H](CC(N)=O)C(=O)N[C@@H](CCCCN)C(=O)N(C)CC(=O)N(C)CC(=O)N(C)CC(=O)N(C)CC(=O)N(C)CC(=O)N(C)CC(=O)N[C@@H](CCCCNC(=O)c2ccc(C(=O)O)c(-c3c4ccc(=O)cc-4oc4cc(O)ccc34)c2)C(N)=O)[C@@H](C)O)NC(=O)[C@H](Cc2c[nH]c3ccccc23)NC1=O` gave a Kd of greater than 2000 nM (Nectin-2 (NECTIN2, Homo sapiens, UniProt Q92692); fluorescence polarization).
`CC[C@H](C)[C@H](NC(=O)[C@H](C)NC(=O)[C@H](CCCNC(=N)N)NC(=O)[C@H](CCCNC(=N)N)NC(=O)[C@H](Cc1ccc(O)cc1)NC(=O)[C@H](CCC(=O)O)NC(=O)[C@H](CCC(=O)O)NC(=O)[C@H](CCCNC(=N)N)NC(=O)[C@H](CCCNC(=N)N)NC(=O)[C@@H](N)CCCNC(=N)N)C(=O)N[C@@H](CC(N)=O)C(=O)NCC(=O)N[C@@H](CCC(N)=O)C(=O)N[C@@H](CC(=O)O)C(=O)N[C@@H](CCCNC(=N)N)C(=O)O` gave a Kd of 6400 ± 300 nM (Magi2; ITC; pH 8.0, 25 °C, with: tandem peptide).
`CC[C@@H](C)[C@@H](NC(=O)[C@@H](CCC(N)=O)NC(=O)[C@H](NC(=O)[C@H]1CCCN1C(=O)[C@H](NC(=O)[C@@H](CO)NC(=O)[C@@H](Cc1ccccc1)NC(=O)[C@H]1CCCN1C(=O)[C@@H](CCC(N)=O)NC(=O)[C@H](N)CCSC)[C@H](C)CC)C(C)C)C(=O)N[C@@H](C(=O)N[C@H](CC(C)C)C(=O)N[C@H](CCC(N)=O)C(=O)NCC(=O)N[C@H](CO)C(=O)N[C@H](CCCNC(=N)N)C(=O)N[C@H](CCCNC(=N)N)C(=O)N[C@H](CCCNC(=N)N)C(=O)N[C@H](CCC(N)=O)C(=O)NCC(=O)N[C@H](CCCNC(=N)N)C(N)=O)[C@H](C)O` gave a Kd of 5200 nM (Kcnma1 (Mus musculus, UniProt Q08460); BK current, blocker, inside-out patch; Xenopus oocytes; pH 7.0, 22 °C, 0 mV, with: 1 µM peptide).
`O=C(N[C@@H]1c2ccccc2C[C@H]1N1CCCC1)c1ccc(-c2ccnc3[nH]ccc23)nc1` gave a Kd of 2700 nM (MAP2K4 (Homo sapiens, UniProt P45985); binding, competition with immobilised ligand).
`CSCC[C@@H]1NC(=O)[C@H](Cc2ccccc2)NC(=O)[C@H]([C@@H](C)O)NC(=O)[C@@H]2CSSC[C@@H]3NC(=O)[C@H]([C@@H](C)O)NC(=O)[C@H](CC(N)=O)NC(=O)[C@H](CSSC[C@@H](C(=O)N[C@@H](CC(=O)O)C(=O)N[C@@H](CCC(N)=O)C(=O)O)NC(=O)[C@H](CC(C)C)NC1=O)NC(=O)[C@H](CCCCN)NC(=O)[C@H](CC(=O)O)NC(=O)[C@H](CCCCN)NC(=O)[C@H](Cc1ccccc1)NC(=O)[C@H]([C@@H](C)O)NC(=O)[C@H]([C@@H](C)O)NC(=O)CNC(=O)[C@@H]1CCCN1C(=O)[C@H](CCC(=O)O)NC(=O)[C@@H](NC(=O)[C@@H](NC(=O)[C@@H](NC(=O)[C@H](CCC(=O)O)NC(=O)[C@H](CO)NC(=O)CN)C(C)C)[C@@H](C)O)CSSC[C@H](NC(=O)[C@H](CCCNC(=N)N)NC3=O)C(=O)NCC(=O)N[C@@H](CO)C(=O)N[C@@H](CC(=O)O)C(=O)NCC(=O)N[C@@H](CCCCN)C(=O)N[C@@H](CO)C(=O)N[C@@H](C)C(=O)N[C@@H](C)C(=O)N2` gave a Kd of 4.31 ± 0.47 nM (Chymotrypsin-C S216A; competitive fluorescence polarization; 24 h, pH 8.0, with: FITC-labelled tracer).
For `CC(=O)NCC(=O)N[C@@H](Cc1ccccc1)C(=O)N[C@@H](Cc1ccccc1)C(=O)N[C@@H](Cc1ccc(O)cc1)C(=O)NCC(=O)N[C@@H](Cc1ccc(O)cc1)C(=O)NCC(=O)N[C@@H](CO)C(=O)N[C@@H](CO)C(=O)N[C@@H](CO)C(=O)N[C@@H](CCCNC(=N)N)C(=O)N[C@@H](CCCNC(=N)N)C(=O)N[C@@H](C)C(=O)N1CCC[C@H]1C(=O)N[C@@H](CCC(N)=O)C(=O)N[C@H](C(=O)O)[C@@H](C)O`, the Kd was 27.7 nM (IGF1R (Homo sapiens, UniProt P08069); binding, MST).
The Kd of `CC(=O)N[C@@H](CCCNC(=N)N)C(=O)N[C@H](C(=O)N[C@@H](CCCCN)C(=O)N[C@@H](CO)C(=O)N[C@@H](CCCNC(=N)N)C(=O)N[C@H](C(=O)N[C@@H](Cc1c[nH]c2ccccc12)C(=O)N[C@@H](C)C(=O)N[C@@H](Cc1ccc(O)cc1)C(N)=O)[C@@H](C)OP(=O)(O)O)[C@@H](C)O` is reported as 83.6 nM (14-3-3 protein epsilon; binding, SPR).
For `CC(C)C[C@H](NC(=O)[C@@H]1CCCN1C(=O)CCOCCOCCOCCOCCOCCOCCOCCOCCNC(=S)Nc1ccc2c(c1)C(=O)OC21c2ccc(O)cc2Oc2cc(O)ccc21)C(=O)N[C@@H](Cc1cncn1CCCCCCCCc1ccccc1)C(=O)N[C@@H](C)C(=O)N[C@H](C(N)=O)[C@@H](C)CP(=O)(O)O`, the Kd was greater than 2560 nM (Serine/threonine-protein kinase PLK3, polo-box domain (PLK3, Homo sapiens, UniProt Q9H4B4)).
For `CC(C)C[C@@H]1NC(=O)[C@H](CC(C)C)NC(=O)[C@H](CC(C)C)NC(=O)[C@H]([C@@H](C)O)NC(=O)[C@@H]2CSSC[C@@H]3NC(=O)[C@H]([C@@H](C)O)NC(=O)[C@H](CC(N)=O)NC(=O)[C@H](CSSC[C@@H](C(=O)N[C@@H](CC(=O)O)C(=O)N[C@@H](CCC(N)=O)C(=O)O)NC1=O)NC(=O)[C@H](CCCCN)NC(=O)[C@H](CC(=O)O)NC(=O)[C@H](CCCCN)NC(=O)[C@H](Cc1ccccc1)NC(=O)[C@H]([C@@H](C)O)NC(=O)[C@H]([C@@H](C)O)NC(=O)CNC(=O)[C@@H]1CCCN1C(=O)[C@H](CCC(=O)O)NC(=O)[C@@H](NC(=O)[C@@H](NC(=O)[C@@H](NC(=O)[C@H](CCC(=O)O)NC(=O)[C@H](CO)NC(=O)CN)C(C)C)[C@@H](C)O)CSSC[C@H](NC(=O)[C@H](CCCNC(=N)N)NC3=O)C(=O)NCC(=O)N[C@@H](CO)C(=O)N[C@@H](CC(=O)O)C(=O)NCC(=O)N[C@@H](CCCCN)C(=O)N[C@@H](CO)C(=O)N[C@@H](C)C(=O)N[C@@H](Cc1c[nH]c3ccccc13)C(=O)N2`, the Kd was 1.72 nM (Chymotrypsin-C (Homo sapiens, UniProt Q99895); cell-free assay, FP; pH 8).
`CC(C)C[C@H](NC(=O)[C@H](CO)NC(=O)[C@@H]1CCCN1C(=O)[C@H](CCC(N)=O)NC(=O)[C@@H](NC(=O)[C@H](C)NC(=O)[C@H](CCCCN)NC(=O)[C@H](CC(C)C)NC(=O)[C@H](Cc1ccc(O)cc1)NC(=O)[C@H](COP(=O)(O)O)NC(=O)[C@H](C)NC(=O)[C@H](CCCNC(=N)N)NC(=O)[C@H](CCCNC(=N)N)NC(=O)[C@H](C)NC(=O)[C@H](C)N)[C@@H](C)O)C(=O)O` gave a Kd of 90 ± 10 nM (Magi2; ITC; pH 8.0, 25 °C, with: tandem peptide).
The Kd of `CSCC[C@H](NC=O)C(=O)N[C@@H](CCCNC(=N)N)C(=O)N[C@H](C(=O)NCC(=O)N[C@@H](CC(N)=O)C(=O)N[C@@H](C)C(=O)N[C@@H](CC(N)=O)C(=O)NCC(=O)NCC(=O)N[C@@H](CCCCNC(=S)Nc1ccc2c(c1)C(=O)OC21c2ccc(O)cc2Oc2cc(O)ccc21)C(=O)O)[C@@H](C)O` is reported as 1310 nM and ~1310 nM (Uncharacterized protein YejA (yejA, Escherichia coli, UniProt P33913); binding, fluorescence polarisation; 25 °C, wild type).
For `CSCC[C@@H]1NC(=O)[C@H](CCSC)NC(=O)[C@H]([C@@H](C)O)NC(=O)[C@@H]2CSSC[C@@H]3NC(=O)[C@H]([C@@H](C)O)NC(=O)[C@H](CC(N)=O)NC(=O)[C@H](CSSC[C@@H](C(=O)N[C@@H](CC(=O)O)C(=O)N[C@@H](CCC(N)=O)C(=O)O)NC(=O)[C@H](CC(C)C)NC1=O)NC(=O)[C@H](CCCCN)NC(=O)[C@H](CC(=O)O)NC(=O)[C@H](CCCCN)NC(=O)[C@H](Cc1ccccc1)NC(=O)[C@H]([C@@H](C)O)NC(=O)[C@H]([C@@H](C)O)NC(=O)CNC(=O)[C@@H]1CCCN1C(=O)[C@H](CCC(=O)O)NC(=O)[C@@H](NC(=O)[C@@H](NC(=O)[C@@H](NC(=O)[C@H](CCC(=O)O)NC(=O)[C@H](CO)NC(=O)CN)C(C)C)[C@@H](C)O)CSSC[C@H](NC(=O)[C@H](CCCNC(=N)N)NC3=O)C(=O)NCC(=O)N[C@@H](CO)C(=O)N[C@@H](CC(=O)O)C(=O)NCC(=O)N[C@@H](CCCCN)C(=O)N[C@@H](CO)C(=O)N[C@@H](C)C(=O)N[C@@H](Cc1ccc(O)cc1)C(=O)N2`, the Kd was 5.06 ± 1.22 nM (Chymotrypsin-C S216A; competitive fluorescence polarization; 24 h, pH 8.0, with: FITC-labelled tracer).
`CC(=O)N[C@@H](CCCNC(=N)N)C(=O)N[C@H](C(=O)N[C@@H](CCCCN)C(=O)N[C@@H](CO)C(=O)N[C@@H](CCCNC(=N)N)C(=O)N[C@H](C(=O)N[C@@H](Cc1c[nH]c2ccccc12)C(=O)N[C@@H](C)C(=O)N[C@@H](Cc1c[nH]c2ccccc12)C(N)=O)[C@@H](C)OP(=O)(O)O)[C@@H](C)O` has a Kd of 85.4 nM (14-3-3 protein epsilon; binding, SPR).
`CC(C)C[C@H](NC(=O)[C@H](CCCNC(=N)N)NC(=O)[C@H](CC(C)C)NC(=O)[C@H](CO)NC(=S)Nc1ccc2c(c1)C(=O)OC21c2ccc(O)cc2Oc2cc(O)ccc21)C(=O)N[C@@H](CCCCN)C(=O)N[C@@H](CS)C(=O)NCC(=O)N[C@@H](CCP(=O)(O)O)C(=O)NCC(=O)N1CCC[C@H]1C(=O)N[C@H](C(=O)N[C@@H](Cc1c[nH]c2ccccc12)C(=O)N[C@@H](CC(C)C)C(=O)N[C@H](C(=O)N1CCC[C@H]1C(=O)N[C@@H](CCCNC(=N)N)C(=O)O)C(C)C)C(C)C` gave a Kd of 28200 nM (14-3-3 protein eta (Homo sapiens, UniProt Q04917); binding, fluorescence anisotropy; pH 7.5, FITC-labelled phosphopeptide titration).
